# Measured values from different studies.
# Every numbered part comes from another study and shows a few of its results, in no order. Changes are numbered by the printed parent chain.

# Block 1
# Target: ABI1, truncated, D143A, DHFR fusion (Arabidopsis thaliana)
# Technique: DHFR PCA, deep sequencing
# Medium: yeast
# Notes: methotrexate growth selection, single substitutions
# Together with: (+)-ABA 58 µM
# Relative to: wild-type fitted maximum
# Reading: higher = stronger binding
# Parent: PYL1, truncated, DHFR fusion (Arabidopsis thaliana); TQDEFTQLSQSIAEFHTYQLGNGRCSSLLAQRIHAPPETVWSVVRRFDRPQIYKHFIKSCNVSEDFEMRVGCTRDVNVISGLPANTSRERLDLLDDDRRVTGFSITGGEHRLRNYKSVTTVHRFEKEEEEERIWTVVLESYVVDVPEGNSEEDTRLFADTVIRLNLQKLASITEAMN; partner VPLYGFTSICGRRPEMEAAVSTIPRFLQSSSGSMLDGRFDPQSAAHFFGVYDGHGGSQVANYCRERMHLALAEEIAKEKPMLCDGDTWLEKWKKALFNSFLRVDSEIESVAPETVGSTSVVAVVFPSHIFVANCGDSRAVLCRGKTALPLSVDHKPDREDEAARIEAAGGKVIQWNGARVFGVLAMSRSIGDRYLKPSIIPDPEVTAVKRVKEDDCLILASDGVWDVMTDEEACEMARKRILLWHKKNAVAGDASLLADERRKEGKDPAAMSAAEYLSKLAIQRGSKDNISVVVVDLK
Change,relative binding score [%]
N61A,88
I172M,74.9
S150G,65
D159F,-18.6
T73F,87.6
V161Y,41.1
R24Y,63.1
V43W,7.31
V44N,-30.1
P50S,-4.16
V121R,-11.3
K168I,58.8
T160Y,74.6
T106G,24.2
Y53W,81
T17P,16.1
V136P,5.79
E152L,75.4
T73I,88.2
K116I,11.6

# Block 2
# Target: ATF5, bZIP domain (human)
# Technique: DHFR protein complementation
# Medium: yeast
# Notes: single substitutions, most at no-binding floor
# Relative to: wild-type JUN-FOS pair
# Reading: higher = stronger binding
# Parent: JUN, bZIP domain (human); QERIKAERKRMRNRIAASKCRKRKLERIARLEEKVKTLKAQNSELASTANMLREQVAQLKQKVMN; partner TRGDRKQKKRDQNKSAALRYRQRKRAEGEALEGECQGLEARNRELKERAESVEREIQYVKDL
Change,binding fitness
K34M,-1.31 natural log
Q55G,-1.36 natural log
L45A,-1.51 natural log
K34G,-1.45 natural log
L31V,-1.49 natural log
V56W,-1.41 natural log
E33Q,-1.6 natural log
V56F,-1.44 natural log
L52P,-1.55 natural log
K39A,-1.51 natural log
T48D,-1.47 natural log
A57T,-1.42 natural log
E32S,-1.49 natural log
R30K,-1.38 natural log
T48M,-1.55 natural log
I28N,-1.45 natural log
N42G,-1.53 natural log
K34E,-1.26 natural log

# Block 3
# Target: RNA binding protein fox-1 homolog 2, RRM domain, GST-SBP tag (RBFOX2, Homo sapiens, UniProt O43251-10, residues 100-194)
# Technique: RNA Bind-n-Seq
# Molecule type: RNA
# Medium: in vitro
# Tested at: 365 nM
# Notes: natural RNA segment, single round, ends assumed
# Relative to: no-protein control
# Reading: higher = stronger binding
# Construct (chain): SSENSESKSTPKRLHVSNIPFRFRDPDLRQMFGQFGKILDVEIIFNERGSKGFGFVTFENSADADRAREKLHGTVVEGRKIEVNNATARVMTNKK
Oligonucleotide,RBNS enrichment (R)
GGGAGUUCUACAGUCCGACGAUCACUGUAUACAUCUGUUUAAUUUGAACACACUACAUCGUAGGGUGACUGAUUUUUGAAGUAUACCACAGACAAAAAGUUGUUACUAUGGUAAACUAAGCUAGUUUAACACUUGGAAUUCUCGGGUGCCAA,0.274
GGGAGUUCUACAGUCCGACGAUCAACAAACAUGACCCUAAAUCUUGACUACAGUCAGGAAAGGAAUCAUUUCUAUUUCUCCUCCAUGGGAGAAAAUAGAUAAGAGUAGAAACUGCAGGGAAAAUUAUUUGCAUUGGAAUUCUCGGGUGCCAA,0.499
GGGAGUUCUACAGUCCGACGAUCUCCACCCACAGUCCCUUCCCUGUGCACCCUGCUUUGUCCCCUGCCUUGUCCCCUGCUCUCUCUUCUACCUACCUGCCUACCCCUGCAGAUCCUGUGGGCAGACACCUUACUGGAAUUCUCGGGUGCCAA,2.27
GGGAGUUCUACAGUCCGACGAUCCCUCCUACAGCUGGCCUAACCACUCUUGAGUCGGGGUGGGGGUAACCCUCAAGGAGGAGGUAACUAAGAGGCUCUUCCAGGGGUAGCUGGUGGGUGUGCUUUUCAUAGGCUGGAAUUCUCGGGUGCCAA,0.437
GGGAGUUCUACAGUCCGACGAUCUCCUCCGUUGUUCCCAGGACUCAAGAGGAAUUUGUUUCUCUGCUGUCAGCUUCCUGUCUGGCUCAGUAUAGCCUCACUCUGCCGUUAUGCAAAUGGAGAUCAAAGUAAUUUGGAAUUCUCGGGUGCCAA,0.278
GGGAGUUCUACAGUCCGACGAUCAGCCUAGUACCUACGAAGCUAUUUCUUUACCAAAGUCUCUUGCUUCUGCUUAUGGUCGUGAGCUGAUCACGCAGUUUGCUAGAUGAUUUGACACUGGUGGUGAGUUCUUUUGGAAUUCUCGGGUGCCAA,0.276
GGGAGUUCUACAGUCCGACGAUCUUUGGCCCUGUAUCAGGAGCACAGAUACAGUUUAUGUAACUUGAUGGAAGAAAAUGGAAUUACUCCAAAAAGACAAGUGCUCAAGCAGCAAAAUCCUUACUUCCAGCAAAUGGAAUUCUCGGGUGCCAA,0.277
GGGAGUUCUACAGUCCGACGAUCGUCAGCCAUGAUGUCAUGUGUGUCAGUAGAGGGUCUCCUCUCCCUGCUGAGUAGUAUUCUAUCAUAUGGAUGGGCCUCGGGAUUUUCUUAGUUUUAAAACGAGUUGGUUUUGGAAUUCUCGGGUGCCAA,0.898
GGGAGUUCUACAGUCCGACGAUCACUACUUGAUCAUUAUAUCAAGUGUAUUUUUGUACAUAAUAUAUAUUGGUUAGAAAAAAAUAGAUUGUCUAUUGAAAGAAAUUCUCUCUCUGCAGUAGAUUAUAUUUAUCUGGAAUUCUCGGGUGCCAA,0.679
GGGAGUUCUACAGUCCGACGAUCGGUUUUUUGAGGCUUUUGACACAGUUAUUAGUUAAAUCAAAUGUUCAAAAAUACGGAGCAGUGCCUAGUAUCUGGAGAGCAGCACUACCAUUUAUUCUUUCAUUUAUAGUUGGAAUUCUCGGGUGCCAA,0.386
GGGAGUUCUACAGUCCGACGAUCUCUGGCAUUUAAUACCUACAUGAUUUGUGAGCUACUUCUGCCUUCUCCUUCUCUGCUCUUAAACCUGGAGACGCUUGCUCUGCCUUCUCCCCUAUCACUUCAAGUGUUUAUGGAAUUCUCGGGUGCCAA,1.29
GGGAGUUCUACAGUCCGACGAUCGGUAGGCUGUUUCACCGUCUUCUGGACUGUUUACUACAUGCUGGAAGUAUAUUUGAGCCAGAGGAAUGUGGCUUCCAAUCAAGUUUGUAGGAGUGGACCCUGCCACUGGCUGGAAUUCUCGGGUGCCAA,1.11

# Block 4
# Target: Interferon regulatory factor 5, full length, phosphomimetic (IRF5, Homo sapiens, UniProt Q13568-2, residues 1-514, S451D/S453D/S456D/S462D)
# Technique: protein-binding microarray
# Molecule type: double-stranded DNA, one strand shown
# Medium: in vitro
# Tested at: 940 nM top
# Notes: 60-bp whole probe
# Together with: salmon DNA 0.4 mg/ml
# Relative to: random background probes
# Reading: higher = stronger binding
# Shared flanks, not repeated: GCCTAGCAC … GTCTTGATTCGCTTGACGCTGCTG
Oligonucleotide,fitted relative affinity
AGAGAATGTGGAGAAATAGGGTGCTAG,-0.0475 z-score
TTAGGTTGCCTTTCCCTTTAGTGCTAG,0.288 z-score
TTAGATCTCAGTCTCGATAAGTGCTAG,2.75 z-score
GACGGACTTGGGTATCGGGACGTGCTA,0.606 z-score
TTAGAATTGGGGTTTCGATTAGTGCTA,5.83 z-score
TCCCTTTCAGTTTTCCTCTGGTGCTAG,2.69 z-score
GACGATTTCAGTCTCGATACGTGCTAG,3.87 z-score
TTAGCTTTCAGACTGGATTAGTGCTAG,-0.0966 z-score
TTACGACTGCTTTTCCTTTAGTGCTAG,1.04 z-score
TTAGGTATCGGGAATGGGTTAGTGCTA,4.42 z-score
GACGATAACGGGTTTCGAGACGTGCTA,1.73 z-score
GACGGACTGAGGTATCGGGACGTGCTA,0.246 z-score
CTCTTCTTTTTTTTCTTTAAGTGCTAG,2.03 z-score
TAGAGGGAGTAAAGGAAAGAGTGCTAG,-0.41 z-score
GACGATTTCGGGTATCGAAACGTGCTA,1.7 z-score
TCAAATTTGAGTCACTGACTGTGCTAG,-0.426 z-score
TACGGACTGGACACTGGGGACGTGCTA,-0.593 z-score
TTAGGTTTCCGTTTCGGTTAGTGCTAG,5.96 z-score
TCCAGTCTGGGAGATGAAGCGGTGCTA,-0.652 z-score
GAGCAGAGGCTGATGTATGTGTGCTAG,-0.7 z-score
AACGGTTCCGGTTTCGGGACGTGCTAG,5.29 z-score
TCACCTTTCACTTTAACACTGTGCTAG,2.09 z-score
TTAGGTCTCGGTTTCTGTTAGTGCTAG,6.31 z-score
GAATATATGTATATATGTGTGTGCTAG,-0.27 z-score
TTAGGTATCGGACTGGGTTAGTGCTAG,3.56 z-score

# Block 5
# Target: CCND2, cyclin fold, Cln2 fusion (human)
# Technique: yeast growth competition, sequencing
# Medium: yeast
# Notes: weak parent motif
# Relative to: not given
# Reading: higher = stronger binding
# Parent: BRCA2 docking peptide (human); PSIKRNLLNEFDR; partner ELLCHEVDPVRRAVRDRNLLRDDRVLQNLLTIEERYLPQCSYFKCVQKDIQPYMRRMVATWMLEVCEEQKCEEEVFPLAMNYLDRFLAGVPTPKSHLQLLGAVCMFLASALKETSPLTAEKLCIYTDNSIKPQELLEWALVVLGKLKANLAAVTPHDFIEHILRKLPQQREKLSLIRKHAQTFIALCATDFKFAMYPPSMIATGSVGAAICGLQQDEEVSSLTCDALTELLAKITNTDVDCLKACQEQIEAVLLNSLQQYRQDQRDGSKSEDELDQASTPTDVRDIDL
Change,normalised enrichment score
PSINRNLLNEFDR [K4N],-0.303
PSIKRNLLNFFDR [E10F],0.194
PSIKRNLLNEFKR [D12K],0.221
PSIKHNLLNEFDR [R5H],-0.128
PSIKRNLLNEFIR [D12I],-0.715
PSIKRNHLNEFDR [L7H],-0.363
PSIKRNALNEFDR [L7A],-0.2
PSIKRNLLNEFPR [D12P],0.237
PSIKRNLLNEFGR [D12G],0.34
PSIKRNLLDEFDR [N9D],0.402
PSIKRNLLNEFDY [R13Y],-0.0572
PSIWRNLLNEFDR [K4W],-0.538
PSIKRNLHNEFDR [L8H],0.358
PSIKRNLLNEFDC [R13C],0.0079
PDIKRNLLNEFDR [S2D],0.564
PSIFRNLLNEFDR [K4F],-0.0465

# Some of these lines once more (block 1):
Change,relative binding score [%]
D159F,-18.6
K168I,58.8
V136P,5.79
N61A,88
Y53W,81
T73F,87.6
P50S,-4.16
I172M,74.9
R24Y,63.1
S150G,65
K116I,11.6
